Measured values from different studies.
Numbered parts are unrelated; each lists some results of a single study.
Sequence of UniProt Q9NWZ3 (whole entry, looked up): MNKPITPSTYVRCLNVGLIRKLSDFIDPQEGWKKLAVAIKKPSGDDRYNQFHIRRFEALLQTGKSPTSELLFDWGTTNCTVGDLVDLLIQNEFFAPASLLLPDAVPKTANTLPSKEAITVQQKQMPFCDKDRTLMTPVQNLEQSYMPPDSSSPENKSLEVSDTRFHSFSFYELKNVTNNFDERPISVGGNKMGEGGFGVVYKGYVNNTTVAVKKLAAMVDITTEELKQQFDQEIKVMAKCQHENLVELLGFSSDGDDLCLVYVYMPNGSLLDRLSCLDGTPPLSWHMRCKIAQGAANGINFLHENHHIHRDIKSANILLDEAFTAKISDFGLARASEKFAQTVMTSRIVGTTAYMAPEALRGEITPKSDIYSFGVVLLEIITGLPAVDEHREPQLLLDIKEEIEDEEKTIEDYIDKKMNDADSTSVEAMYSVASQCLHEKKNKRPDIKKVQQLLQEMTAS
Sequence of UniProt Q96L34 (whole entry, looked up): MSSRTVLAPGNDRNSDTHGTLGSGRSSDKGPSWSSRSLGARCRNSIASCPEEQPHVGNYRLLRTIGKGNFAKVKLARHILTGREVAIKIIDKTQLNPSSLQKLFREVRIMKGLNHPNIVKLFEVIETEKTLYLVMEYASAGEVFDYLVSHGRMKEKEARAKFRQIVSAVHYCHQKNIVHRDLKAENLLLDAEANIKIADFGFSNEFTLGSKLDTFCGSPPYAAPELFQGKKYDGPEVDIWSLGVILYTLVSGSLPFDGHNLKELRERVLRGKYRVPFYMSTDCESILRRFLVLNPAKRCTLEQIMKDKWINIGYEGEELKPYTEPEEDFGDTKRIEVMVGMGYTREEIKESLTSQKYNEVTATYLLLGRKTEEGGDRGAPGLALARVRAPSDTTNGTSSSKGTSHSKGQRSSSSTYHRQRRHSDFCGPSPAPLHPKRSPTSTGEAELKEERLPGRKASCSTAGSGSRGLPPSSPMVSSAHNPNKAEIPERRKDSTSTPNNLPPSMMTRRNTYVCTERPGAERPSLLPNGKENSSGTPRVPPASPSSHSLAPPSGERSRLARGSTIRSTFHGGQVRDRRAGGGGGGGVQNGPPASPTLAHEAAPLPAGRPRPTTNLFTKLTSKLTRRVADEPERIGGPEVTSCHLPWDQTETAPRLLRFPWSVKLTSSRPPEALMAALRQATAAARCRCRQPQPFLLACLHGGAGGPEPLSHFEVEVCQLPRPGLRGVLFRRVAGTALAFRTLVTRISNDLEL
Sequence of UniProt Q9UQM7 (whole entry, looked up): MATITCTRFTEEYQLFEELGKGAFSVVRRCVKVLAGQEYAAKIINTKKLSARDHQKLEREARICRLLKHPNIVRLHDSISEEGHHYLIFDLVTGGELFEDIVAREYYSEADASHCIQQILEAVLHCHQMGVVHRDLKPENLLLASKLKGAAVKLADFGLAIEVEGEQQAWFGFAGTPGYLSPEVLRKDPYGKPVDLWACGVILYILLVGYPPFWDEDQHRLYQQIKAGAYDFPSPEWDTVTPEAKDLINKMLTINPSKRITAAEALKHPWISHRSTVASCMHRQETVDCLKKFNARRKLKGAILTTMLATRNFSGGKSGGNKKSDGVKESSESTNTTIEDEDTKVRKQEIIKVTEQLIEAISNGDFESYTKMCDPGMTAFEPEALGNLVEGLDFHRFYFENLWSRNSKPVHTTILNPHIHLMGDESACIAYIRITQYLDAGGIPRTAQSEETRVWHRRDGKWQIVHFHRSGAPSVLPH
Sequence of UniProt P07333 (whole entry, looked up): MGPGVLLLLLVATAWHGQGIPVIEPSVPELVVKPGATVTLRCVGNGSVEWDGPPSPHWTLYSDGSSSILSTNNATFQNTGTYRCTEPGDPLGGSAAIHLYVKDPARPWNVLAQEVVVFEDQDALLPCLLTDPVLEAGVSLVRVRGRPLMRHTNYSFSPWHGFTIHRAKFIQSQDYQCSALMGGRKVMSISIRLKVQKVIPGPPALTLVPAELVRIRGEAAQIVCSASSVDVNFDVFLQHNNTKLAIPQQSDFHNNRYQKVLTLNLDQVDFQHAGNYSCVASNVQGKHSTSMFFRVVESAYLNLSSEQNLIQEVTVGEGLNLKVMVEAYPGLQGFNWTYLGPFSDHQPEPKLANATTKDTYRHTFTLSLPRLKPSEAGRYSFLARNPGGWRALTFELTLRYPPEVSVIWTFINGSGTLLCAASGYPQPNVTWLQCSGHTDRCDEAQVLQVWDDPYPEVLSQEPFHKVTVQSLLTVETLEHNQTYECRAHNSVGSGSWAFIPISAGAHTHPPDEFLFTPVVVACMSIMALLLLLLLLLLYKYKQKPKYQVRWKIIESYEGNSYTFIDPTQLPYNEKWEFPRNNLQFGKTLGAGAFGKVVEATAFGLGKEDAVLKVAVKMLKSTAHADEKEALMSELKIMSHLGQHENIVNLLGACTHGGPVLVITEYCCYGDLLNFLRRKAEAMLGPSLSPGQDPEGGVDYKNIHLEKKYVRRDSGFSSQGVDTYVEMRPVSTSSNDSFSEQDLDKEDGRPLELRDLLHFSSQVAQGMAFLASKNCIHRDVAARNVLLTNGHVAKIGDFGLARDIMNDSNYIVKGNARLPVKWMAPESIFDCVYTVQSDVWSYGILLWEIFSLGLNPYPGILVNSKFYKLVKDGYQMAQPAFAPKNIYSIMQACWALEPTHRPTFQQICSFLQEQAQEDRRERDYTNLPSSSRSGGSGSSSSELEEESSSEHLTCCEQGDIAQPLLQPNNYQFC
Sequence of UniProt P49761 (whole entry, looked up): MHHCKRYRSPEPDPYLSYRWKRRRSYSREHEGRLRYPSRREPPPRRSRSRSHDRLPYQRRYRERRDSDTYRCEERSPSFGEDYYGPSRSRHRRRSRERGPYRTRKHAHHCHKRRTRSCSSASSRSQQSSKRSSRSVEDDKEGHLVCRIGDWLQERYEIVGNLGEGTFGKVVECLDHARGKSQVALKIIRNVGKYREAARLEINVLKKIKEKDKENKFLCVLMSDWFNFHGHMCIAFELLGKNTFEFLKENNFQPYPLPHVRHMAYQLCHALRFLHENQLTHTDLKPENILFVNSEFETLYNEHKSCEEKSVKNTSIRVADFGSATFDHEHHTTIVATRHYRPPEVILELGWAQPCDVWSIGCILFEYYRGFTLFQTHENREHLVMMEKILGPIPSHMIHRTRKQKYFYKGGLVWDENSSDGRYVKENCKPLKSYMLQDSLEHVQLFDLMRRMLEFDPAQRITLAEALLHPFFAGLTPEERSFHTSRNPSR
Sequence of UniProt Q15759 (whole entry, looked up): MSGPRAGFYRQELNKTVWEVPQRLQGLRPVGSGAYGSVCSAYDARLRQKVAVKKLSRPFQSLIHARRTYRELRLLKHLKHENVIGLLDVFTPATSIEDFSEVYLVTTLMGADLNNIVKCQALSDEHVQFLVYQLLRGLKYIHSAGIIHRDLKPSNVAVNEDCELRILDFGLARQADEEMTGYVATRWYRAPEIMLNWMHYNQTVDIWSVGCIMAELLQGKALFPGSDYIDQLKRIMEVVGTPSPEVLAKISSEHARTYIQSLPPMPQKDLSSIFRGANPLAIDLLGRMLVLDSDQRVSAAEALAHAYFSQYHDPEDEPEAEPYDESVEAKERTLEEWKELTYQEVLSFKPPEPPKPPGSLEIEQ
Sequence of UniProt Q8N4C8 (whole entry, looked up): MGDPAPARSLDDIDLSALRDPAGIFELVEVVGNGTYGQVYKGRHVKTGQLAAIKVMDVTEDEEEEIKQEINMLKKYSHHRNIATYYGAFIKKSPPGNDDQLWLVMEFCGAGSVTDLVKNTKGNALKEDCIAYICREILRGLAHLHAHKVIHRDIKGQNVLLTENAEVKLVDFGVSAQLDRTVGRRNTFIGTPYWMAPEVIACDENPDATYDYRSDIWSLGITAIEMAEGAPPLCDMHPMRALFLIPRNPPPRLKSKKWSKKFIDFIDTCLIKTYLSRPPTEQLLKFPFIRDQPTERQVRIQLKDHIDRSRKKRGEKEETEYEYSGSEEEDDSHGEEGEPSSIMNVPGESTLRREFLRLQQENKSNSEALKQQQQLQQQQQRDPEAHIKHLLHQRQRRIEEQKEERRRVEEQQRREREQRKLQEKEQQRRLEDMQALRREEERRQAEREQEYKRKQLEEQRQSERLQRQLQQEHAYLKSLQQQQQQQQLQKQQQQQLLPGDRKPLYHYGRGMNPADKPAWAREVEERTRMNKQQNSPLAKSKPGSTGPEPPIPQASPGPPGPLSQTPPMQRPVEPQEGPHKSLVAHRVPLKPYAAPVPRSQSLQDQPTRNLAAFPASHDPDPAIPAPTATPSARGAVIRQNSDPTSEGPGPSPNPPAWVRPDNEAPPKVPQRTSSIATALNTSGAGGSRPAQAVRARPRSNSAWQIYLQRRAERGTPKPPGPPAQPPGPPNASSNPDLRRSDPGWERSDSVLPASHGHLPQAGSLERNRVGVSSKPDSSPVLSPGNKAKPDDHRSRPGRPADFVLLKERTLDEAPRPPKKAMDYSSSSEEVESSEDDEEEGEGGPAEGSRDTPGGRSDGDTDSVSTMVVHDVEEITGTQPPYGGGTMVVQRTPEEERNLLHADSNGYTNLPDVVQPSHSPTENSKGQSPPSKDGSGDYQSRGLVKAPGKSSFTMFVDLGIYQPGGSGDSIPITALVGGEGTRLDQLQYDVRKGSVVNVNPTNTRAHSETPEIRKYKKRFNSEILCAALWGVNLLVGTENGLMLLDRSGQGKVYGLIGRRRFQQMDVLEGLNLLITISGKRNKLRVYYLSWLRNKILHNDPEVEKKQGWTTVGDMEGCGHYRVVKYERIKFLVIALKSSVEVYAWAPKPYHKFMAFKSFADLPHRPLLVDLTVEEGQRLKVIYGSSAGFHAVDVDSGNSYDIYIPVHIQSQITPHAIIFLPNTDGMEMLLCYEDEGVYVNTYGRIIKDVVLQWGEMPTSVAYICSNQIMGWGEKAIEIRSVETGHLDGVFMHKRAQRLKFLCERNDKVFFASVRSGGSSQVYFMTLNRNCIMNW

Sample 1 — SMILES: O=C(Nc1ccccc1)Nc1cccc(Oc2ccc3nccn3n2)c1; concentration: 1 µM
target | technique | notes | relative to | remaining binding [%]
Ephrin type-A receptor 4 (EPHA4, Homo sapiens, UniProt P54764) | competitive binding panel | – | vehicle | 100
Calcium/calmodulin-dependent protein kinase type II subunit alpha (CAMK2A, Homo sapiens, UniProt Q9UQM7) | competitive binding panel | – | vehicle | 100
Rhodopsin kinase GRK1 (GRK1, Homo sapiens, UniProt Q15835) | competitive binding panel | – | vehicle | 100
Serine/threonine-protein kinase RIO2 (RIOK2, Homo sapiens, UniProt Q9BVS4) | competitive binding panel | – | vehicle | 100
Macrophage colony-stimulating factor 1 receptor (CSF1R, Homo sapiens, UniProt P07333) | competitive binding scan | autoinhibited form | – | 100
Cyclin-dependent kinase 7 (CDK7, Homo sapiens, UniProt P50613) | competitive binding panel | – | vehicle | 100
Bone morphogenetic protein receptor type-2 (BMPR2, Homo sapiens, UniProt Q13873) | competitive binding panel | – | vehicle | 100
Casein kinase I isoform alpha (CSNK1A1, Homo sapiens, UniProt P48729) | competitive binding panel | – | vehicle | 100
Glycogen synthase kinase-3 beta (GSK3B, Homo sapiens, UniProt P49841) | competitive binding panel | – | vehicle | 100

Sample 2 — Compound: N#CC(=C(N)Sc1ccc(N)cc1)c1ccccc1C(F)(F)F; effect on: enzyme activity; mode: inhibitor; concentration: 0.5 µM; relative to: control
target | remaining activity [%]
Mitogen-activated protein kinase 1 (MAPK1, Homo sapiens, UniProt P28482) | 86
cGMP-dependent protein kinase 2 (PRKG2, Homo sapiens, UniProt Q13237) | 113
Serine/threonine-protein kinase Nek3 (NEK3, Homo sapiens, UniProt P51956) | 99.6
Mitogen-activated protein kinase 14 (MAPK14, Homo sapiens, UniProt Q16539) | 96
MAP/microtubule affinity-regulating kinase 4 (MARK4, Homo sapiens, UniProt Q96L34) | 101
Misshapen-like kinase 1 (MINK1, Homo sapiens, UniProt Q8N4C8) | 104
Dual specificity protein kinase CLK3 (CLK3, Homo sapiens, UniProt P49761) | 103
Cyclin-dependent kinase 1, with cyclin A (CDK1, Homo sapiens, UniProt P06493) | 91.2
Ribosomal protein S6 kinase alpha-4 (RPS6KA4, Homo sapiens, UniProt O75676) | 112
Calcium/calmodulin-dependent protein kinase type IV (CAMK4, Homo sapiens, UniProt Q16566) | 110
Serine/threonine-protein kinase PAK 3 (PAK3, Homo sapiens, UniProt O75914) | 99.2
Serine/threonine-protein kinase MARK2 (MARK2, Homo sapiens, UniProt Q7KZI7) | 124
Serine/threonine-protein kinase PLK3 (PLK3, Homo sapiens, UniProt Q9H4B4) | 96.9
Mitogen-activated protein kinase 11 (MAPK11, Homo sapiens, UniProt Q15759) | 112

Sample 3 — effect on: cell-free assay; technique: competition with immobilised ligand; concentration: 1 µM
SMILES: CCC(=O)N[C@@H]1CC[C@H](C(=O)N(C)c2ccc(-c3nc4ccccc4o3)cc2)C1
target | remaining binding
Proto-oncogene tyrosine-protein kinase receptor Ret (RET, Homo sapiens, UniProt P07949, V804L) | 100%
Death-associated protein kinase 2 (DAPK2, Homo sapiens, UniProt Q9UIK4) | 100%
Tyrosine-protein kinase CSK (CSK, Homo sapiens, UniProt P41240) | 100%
Serine/threonine-protein kinase 33 (STK33, Homo sapiens, UniProt Q9BYT3) | 100%
Phosphatidylinositol 4,5-bisphosphate 3-kinase catalytic subunit alpha isoform (PIK3CA, Homo sapiens, UniProt P42336, E545A) | 77%
Interleukin-1 receptor-associated kinase 4 (IRAK4, Homo sapiens, UniProt Q9NWZ3) | 100%

Sample 4 — effect on: acetyl-histone H4 peptide binding; technique: AlphaScreen displacement; concentration: 50 µM
Target: Bromodomain-containing protein 4, BD1 (BRD4, Homo sapiens, UniProt O60885)
Compound | inhibition [%]
O=C1NCCc2[nH]c(-c3ccnc(-c4cnc5ccccc5c4)c3)cc21 | 18.8
COc1cc(OC)c(C=C2C(=O)Nc3ccccc32)c(OC)c1 | 61.6
COc1ccccc1OCC(=O)NNC(=O)c1ccc(Cl)cc1 | 3.9
O=C(CSc1ccc2nnc(-c3cccc(F)c3)n2n1)Nc1cccc(Cl)c1 | 2.8
CC(C)c1cc(/C=C(\C#N)C(=O)NCCCc2ccccc2)cc(C(C)C)c1O | 13.1
CCCN(CCC)CCCNc1ccc2nnc(-c3ccc(F)cc3)n2n1 | 15.7
Brc1c(Br)c(Br)c2[nH]nnc2c1Br | 6.9
Cc1cc2nc(C(C#N)=Cc3ccncc3)[nH]c2cc1C | 25.6
O=C(Nc1nccs1)c1n[nH]c2ccccc12 | 16.6

For quick reference, copied from above (sample 4):
Compound | inhibition [%]
CC(C)c1cc(/C=C(\C#N)C(=O)NCCCc2ccccc2)cc(C(C)C)c1O | 13.1
O=C(CSc1ccc2nnc(-c3cccc(F)c3)n2n1)Nc1cccc(Cl)c1 | 2.8
COc1ccccc1OCC(=O)NNC(=O)c1ccc(Cl)cc1 | 3.9
Brc1c(Br)c(Br)c2[nH]nnc2c1Br | 6.9
COc1cc(OC)c(C=C2C(=O)Nc3ccccc32)c(OC)c1 | 61.6
O=C(Nc1nccs1)c1n[nH]c2ccccc12 | 16.6
